Measurements pooled from the literature.
Lines come from different studies, so protocols differ. ± gives the spread as reported.

SMILES | target | assay | test system | setting | scale | quantity | result
COC[C@@H](NC(C)=O)C(=O)NCc1ccc(OCc2ccc(Cl)cc2)cc1 | voltage-gated sodium channel | whole-cell patch clamp | rat embryonic cortical neurons | 10 µM | – | V1/2 of fast inactivation | -57.9 ± 0.7 mV
CC1OCC2OC(OC3C(N)CC(N)C(O)C3OC3OC(CO)C(OC4OC(CN)C(O)C(O)C4N)C3O)C(N)C(O)C2O1 (stereo not shown) | Mycobacterium smegmatis ribosome wild type | translation, cell-free luciferase synthesis | – | – | – | IC50 | 0.12 ± 0.08 µg/mL
Nc1ccn(C2CCC(OC(C(=O)O)P(=O)(O)O)C2)c(=O)n1 (racemic) | HIV-1 reverse transcriptase M184V/E138K | enzyme activity, inhibitor | – | together with: poly(I)·dC, [3H]dCTP | relative to: mutant over wild type | fold resistance | 5 fold
CCCCCO[C@H]1[C@H](O)[C@@H](N)[C@@H](O[C@H]2[C@H](O[C@@H]3O[C@H](CO)[C@@H](O[C@H]4O[C@@H](CN)[C@@H](O)[C@H](O)[C@H]4N)[C@H]3O)[C@@H](O)[C@H](N)C[C@@H]2N)O[C@@H]1CO | Mycobacterium smegmatis ribosome wild type | translation, cell-free luciferase synthesis | – | – | – | IC50 | 0.4 ± 0.11 µg/mL
CC[C@H](C)[C@@H]1NC(=O)[C@H](Cc2ccc(O)cc2)NC(=O)[C@@H](N)CSSC[C@@H](C(=O)N2CCC[C@H]2C(=O)N2CCC[C@H]2C(=O)NCC(N)=O)NC(=O)[C@H](CC(N)=O)NC(=O)[C@H](CCC(N)=O)NC1=O | oxytocin receptor (titi monkey) | Ca2+ mobilisation, agonist | CHO cells | – | – | EC50 | 0.00468 µM
CC[C@H](C)[C@H](NC(=O)[C@H](CCCNC(=N)N)NC(=O)[C@H](CCCNC(=N)N)NC(=O)[C@H](CC(C)C)NC(=O)[C@H](Cc1ccccc1)NC(=O)CNC(=O)CNC(=O)[C@@H](N)Cc1ccc(O)cc1)C(=O)N[C@@H](CCCNC(=N)N)C(=O)N1CCC[C@H]1C(=O)N[C@@H](CCCCN)C(=O)N[C@@H](CC(C)C)C(=O)N[C@@H](CCCCN)C(=O)N[C@@H](Cc1c[nH]c2ccccc12)C(=O)N[C@@H](CC(=O)O)C(=O)N[C@@H](CC(N)=O)C(=O)N[C@@H](CCC(N)=O)C(=O)O | human/Rana pipiens MOR chimera EL2 | cAMP response, agonist | HEK-293T | together with: isoproterenol | – | EC50 | 2.5 µM
CO[C@H]1[C@H](O)[C@@H](N)[C@@H](O[C@H]2[C@H](O[C@@H]3O[C@H](CO)[C@@H](O[C@H]4O[C@@H](CN)[C@@H](O)[C@H](O)[C@H]4N)[C@H]3O)[C@@H](O)[C@H](N)C[C@@H]2N)O[C@@H]1CO | Mycobacterium smegmatis ribosome wild type | translation, cell-free luciferase synthesis | – | – | – | IC50 | 0.22 ± 0.05 µg/mL
CCCCCCCCC(=O)NCc1ccc(O)c(OC)c1 | mAb 5-3H1 | antibody binding, indirect competitive ELISA | – | together with: coating antigen 1-OVA | – | IC50 | 0.0216 µg/mL
CCCc1cnn2c(NCc3ccc(C)s3)nc(N[C@H](CC)CO)nc12 | Cav2.1 calcium channel | tail current integral, whole-cell patch clamp | HEK293 transfected with Cav2.1 | – | – | EC50 | 11.4 µM
NC[C@@H]1O[C@H](O[C@H]2[C@@H](O)[C@H](O[C@@H]3[C@@H](O)[C@H](N)C[C@H](N)[C@H]3O[C@H]3O[C@@H]4COCO[C@H]4[C@H](O)[C@H]3N)O[C@@H]2CO)[C@H](N)[C@@H](O)[C@@H]1O | Mycobacterium smegmatis ribosome wild type | translation, cell-free luciferase synthesis | – | – | – | IC50 | 0.89 ± 0.24 µg/mL
CC(C)C[C@H](NC(=O)[C@@H](N)CCCNC(=N)N)C(=O)N[C@@H](CC(N)=O)C(=O)N[C@@H](CO)C(=O)N[C@@H](C)C(=O)N[C@@H](CO)C(=O)N[C@@H](CCCNC(=N)N)C(=O)N[C@H](C(=O)N[C@@H](C)C(=O)N[C@@H](Cc1c[nH]cn1)C(=O)NCC(=O)N[C@@H](Cc1ccc(O)cc1)C(N)=O)C(C)C | ATRP receptor 2 (Aplysia californica) | IP1 accumulation, agonist | – | – | – | EC50 | 10 µM
COc1ccc2ccc3c(c2c1)C=[N+]1C2CCCCC2[N+]2=Cc4ccc(OCCN5CCCCC5)cc4[O][Au-]21[O]3.F[P-](F)(F)(F)(F)F (stereo not shown) | Klebsiella pneumoniae thioredoxin reductase | cellular enzyme activity, inhibitor | Klebsiella pneumoniae, carbapenem-resistant | 4 h | – | IC50 | 1.08 µM
C=CCn1cnc2c(NCc3ccc(C)s3)nc(N[C@H](CC)CO)nc21 | Cav2.1 calcium channel | perforated patch clamp | HEK293 transfected | 50 µM, 100 ms application, at -100 mV | – | unbinding time constant | 0.99 s
C[C@H](NC(=O)[C@@H]1CCCN1C(=O)[C@H](Cc1ccc(O)cc1)NC(=O)CNC(=O)[C@H](CO)NC(=O)[C@H](Cc1ccccc1)NC(=O)[C@@H](N)[C@@H](C)O)C(=O)N[C@@H](Cc1ccccc1)C(=O)O | mu opioid receptor, rat | agonist | Sprague Dawley rat, rostral supraoptic nucleus, brain slice | focal application, dose not given | – | spontaneous firing rate | inhibited
CC[C@H](C)[C@H](N)C(=O)N[C@@H](CC(N)=O)C(=O)N[C@@H](CCC(=O)O)C(=O)N[C@@H](CC(=O)O)C(=O)N1CCC[C@H]1C(=O)NCC(=O)N[C@@H](CC(N)=O)C(=O)N[C@@H](CS)C(=O)N[C@@H](CCC(=O)O)C(=O)NCC(=O)N[C@H](C(=O)N[C@@H](CCCCN)C(=O)N[C@@H](CCCNC(=N)N)C(=O)N[C@H](C(=O)N[C@@H](CC(C)C)C(=O)N[C@@H](CO)C(=O)N[C@@H](Cc1ccccc1)C(=O)N[C@@H](CO)C(=O)N[C@@H](CC(C)C)C(=O)N[C@@H](CCCNC(=N)N)C(=O)N[C@@H](CO)C(=O)NCC(=O)N[C@@H](CCCNC(=N)N)C(=O)N[C@H](C(=O)N[C@@H](CO)C(=O)NCC(=O)N[C@@H](CCCNC(=N)N)C(=O)N[C@@H](CC(N)=O)C(=O)N[C@@H](Cc1c[nH]c2ccccc12)C(=O)N[C@@H](CCCCN)C(=O)N[C@@H](CC(N)=O)C(=O)N[C@@H](Cc1ccccc1)C(=O)N[C@@H](C)C(=O)N[C@@H](CC(C)C)C(=O)N[C@H](C(=O)N1CCC[C@H]1C(=O)N[C@@H](CC(C)C)C(=O)N[C@@H](CC(C)C)C(=O)N[C@@H](CCCNC(=N)N)C(=O)N[C@@H](CC(=O)O)C(=O)N[C@@H](C)C(=O)N[C@@H](CO)C(=O)N[C@H](C(=O)N[C@@H](CCCNC(=N)N)C(=O)O)[C@@H](C)O)C(C)C)C(C)C)[C@@H](C)O)C(C)C | calmodulin | – | – | 10 µM, pH 7.5, together with: calmodulin 10 µM, CaCl2 1 mM | – | tryptophan emission maximum | 330 nm
COc1ccc2ccc3c(c2c1)C=[N+]1C2CCCCC2[N+]2=Cc4cccc(OC)c4[O][Au-]21[O]3.F[P-](F)(F)(F)(F)F (stereo not shown) | Klebsiella pneumoniae glutathione reductase | cellular enzyme activity, inhibitor | Klebsiella pneumoniae, carbapenem-resistant | 4 h | – | IC50 | 6.4 µM
CCCCO[C@H]1[C@H](O)[C@@H](N)[C@@H](O[C@H]2[C@H](O[C@@H]3O[C@H](CO)[C@@H](O[C@H]4O[C@@H](CN)[C@@H](O)[C@H](O)[C@H]4N)[C@H]3O)[C@@H](O)[C@H](N)C[C@@H]2N)O[C@@H]1CO | Mycobacterium smegmatis ribosome wild type | translation, cell-free luciferase synthesis | – | – | – | IC50 | 0.3 ± 0.03 µg/mL
COc1ccc(CCN2CCC[C@H](CN3CCc4cc(OC)c(OC)cc4CC3=O)C2)cc1OC | HCN channel mouse | Ih current | VTA dopamine neurons | concentration not given | – | inhibition | inhibited
NC[C@@H]1O[C@H](O[C@H]2[C@@H](O)[C@H](O[C@@H]3[C@@H](O)[C@H](N)C[C@H](N)[C@H]3O[C@H]3O[C@H](CO)[C@@H](OCCO)[C@H](O)[C@H]3N)O[C@@H]2CO)[C@H](N)[C@@H](O)[C@@H]1O | Mycobacterium smegmatis ribosome wild type | translation, cell-free luciferase synthesis | – | – | – | IC50 | 0.05 ± 0.02 µg/mL
COC[C@@H](NC(C)=O)C(=O)NCc1ccc(OCc2ccc(OC(F)(F)F)cc2)cc1 | voltage-gated sodium channel | whole-cell patch clamp | rat embryonic cortical neurons | 10 µM | – | V1/2 of fast inactivation | -58.4 ± 1 mV
CC[C@H](CO)Nc1nc(NCc2ccc(C)s2)n2ncc(C(C)C)c2n1 | Cav2.1 calcium channel | tail current integral, whole-cell patch clamp | HEK293 transfected with Cav2.1 | – | – | EC50 | 2.49 µM
COCOC[C@H]1O[C@H](O[C@H]2[C@H](O[C@@H]3O[C@H](CO)[C@@H](O[C@H]4O[C@@H](CN)[C@@H](O)[C@H](O)[C@H]4N)[C@H]3O)[C@@H](O)[C@H](N)C[C@@H]2N)[C@H](N)[C@@H](O)[C@@H]1OCOC | ribosome with human cytosolic A site | luciferase translation, cell-free translation | – | – | – | IC50 | 483 ± 58.5 µg/mL

Repeated from above:
SMILES | target | assay | test system | setting | scale | quantity | result
COC[C@@H](NC(C)=O)C(=O)NCc1ccc(OCc2ccc(Cl)cc2)cc1 | voltage-gated sodium channel | whole-cell patch clamp | rat embryonic cortical neurons | 10 µM | – | V1/2 of fast inactivation | -57.9 ± 0.7 mV
COc1ccc2ccc3c(c2c1)C=[N+]1C2CCCCC2[N+]2=Cc4ccc(OCCN5CCCCC5)cc4[O][Au-]21[O]3.F[P-](F)(F)(F)(F)F (stereo not shown) | Klebsiella pneumoniae thioredoxin reductase | cellular enzyme activity, inhibitor | Klebsiella pneumoniae, carbapenem-resistant | 4 h | – | IC50 | 1.08 µM
CC1OCC2OC(OC3C(N)CC(N)C(O)C3OC3OC(CO)C(OC4OC(CN)C(O)C(O)C4N)C3O)C(N)C(O)C2O1 (stereo not shown) | Mycobacterium smegmatis ribosome wild type | translation, cell-free luciferase synthesis | – | – | – | IC50 | 0.12 ± 0.08 µg/mL
